Measurements of several laboratories.
Each line is one published result; not all experiments were run side by side.
MAP4K5: Mitogen-activated protein kinase kinase kinase kinase 5 (MAP4K5, Homo sapiens, UniProt Q9Y4K4)
Sequence of UniProt Q9Y4K4 (whole entry, looked up): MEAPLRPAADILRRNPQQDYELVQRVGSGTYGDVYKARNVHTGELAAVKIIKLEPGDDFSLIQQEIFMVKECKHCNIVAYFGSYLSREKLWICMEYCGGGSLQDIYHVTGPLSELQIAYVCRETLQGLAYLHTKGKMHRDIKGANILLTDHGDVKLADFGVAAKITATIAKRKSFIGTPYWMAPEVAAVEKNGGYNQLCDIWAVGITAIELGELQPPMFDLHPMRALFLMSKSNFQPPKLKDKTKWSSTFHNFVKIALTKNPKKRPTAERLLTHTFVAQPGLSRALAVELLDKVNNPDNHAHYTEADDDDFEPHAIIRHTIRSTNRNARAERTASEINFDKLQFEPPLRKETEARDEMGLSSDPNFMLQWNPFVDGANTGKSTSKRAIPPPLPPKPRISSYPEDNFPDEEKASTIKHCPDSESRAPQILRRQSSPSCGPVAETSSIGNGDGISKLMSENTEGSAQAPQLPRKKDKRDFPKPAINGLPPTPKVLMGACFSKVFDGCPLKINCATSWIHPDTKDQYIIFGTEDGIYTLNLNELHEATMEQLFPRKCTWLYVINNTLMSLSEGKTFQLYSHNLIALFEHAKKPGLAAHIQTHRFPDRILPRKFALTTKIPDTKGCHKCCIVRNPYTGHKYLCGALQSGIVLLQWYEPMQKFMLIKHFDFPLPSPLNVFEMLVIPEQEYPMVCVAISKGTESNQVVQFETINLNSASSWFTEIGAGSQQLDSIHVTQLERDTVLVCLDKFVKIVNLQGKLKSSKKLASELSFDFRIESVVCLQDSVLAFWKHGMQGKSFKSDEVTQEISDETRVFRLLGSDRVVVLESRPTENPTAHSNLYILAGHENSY
Sequence of UniProt Q9UIK4 (whole entry, looked up): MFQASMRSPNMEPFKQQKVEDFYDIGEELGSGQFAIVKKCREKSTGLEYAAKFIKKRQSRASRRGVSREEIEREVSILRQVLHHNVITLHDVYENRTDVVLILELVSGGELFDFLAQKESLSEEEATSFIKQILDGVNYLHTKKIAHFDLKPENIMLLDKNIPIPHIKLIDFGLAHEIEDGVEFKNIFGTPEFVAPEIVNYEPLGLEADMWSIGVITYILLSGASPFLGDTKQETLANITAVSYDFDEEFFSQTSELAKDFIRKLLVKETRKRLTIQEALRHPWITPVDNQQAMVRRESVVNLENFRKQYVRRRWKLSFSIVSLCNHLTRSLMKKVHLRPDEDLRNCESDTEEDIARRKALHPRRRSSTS
Sequence of UniProt Q9Y6E0 (whole entry, looked up): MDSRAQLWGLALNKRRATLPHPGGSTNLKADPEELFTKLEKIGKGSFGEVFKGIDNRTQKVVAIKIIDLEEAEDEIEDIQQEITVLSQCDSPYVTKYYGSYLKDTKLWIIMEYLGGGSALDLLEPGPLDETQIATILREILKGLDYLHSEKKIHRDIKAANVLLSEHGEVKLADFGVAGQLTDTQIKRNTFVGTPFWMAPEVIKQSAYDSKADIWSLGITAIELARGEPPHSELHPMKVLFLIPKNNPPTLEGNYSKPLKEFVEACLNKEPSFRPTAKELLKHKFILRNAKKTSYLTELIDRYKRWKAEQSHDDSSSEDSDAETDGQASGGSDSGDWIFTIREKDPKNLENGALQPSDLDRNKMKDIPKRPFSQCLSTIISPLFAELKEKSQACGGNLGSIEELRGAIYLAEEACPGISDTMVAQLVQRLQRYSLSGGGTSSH
Sequence of UniProt Q9P1W9 (whole entry, looked up): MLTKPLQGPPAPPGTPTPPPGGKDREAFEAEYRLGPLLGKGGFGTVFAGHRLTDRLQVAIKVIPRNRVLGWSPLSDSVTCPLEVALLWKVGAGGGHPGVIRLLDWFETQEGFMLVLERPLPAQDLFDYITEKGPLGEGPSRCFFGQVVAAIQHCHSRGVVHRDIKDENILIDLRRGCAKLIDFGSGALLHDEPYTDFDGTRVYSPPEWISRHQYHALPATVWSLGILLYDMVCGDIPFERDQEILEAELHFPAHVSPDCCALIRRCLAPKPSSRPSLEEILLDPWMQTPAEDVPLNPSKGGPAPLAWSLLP
Sequence of UniProt Q9Y2H1 (whole entry, looked up): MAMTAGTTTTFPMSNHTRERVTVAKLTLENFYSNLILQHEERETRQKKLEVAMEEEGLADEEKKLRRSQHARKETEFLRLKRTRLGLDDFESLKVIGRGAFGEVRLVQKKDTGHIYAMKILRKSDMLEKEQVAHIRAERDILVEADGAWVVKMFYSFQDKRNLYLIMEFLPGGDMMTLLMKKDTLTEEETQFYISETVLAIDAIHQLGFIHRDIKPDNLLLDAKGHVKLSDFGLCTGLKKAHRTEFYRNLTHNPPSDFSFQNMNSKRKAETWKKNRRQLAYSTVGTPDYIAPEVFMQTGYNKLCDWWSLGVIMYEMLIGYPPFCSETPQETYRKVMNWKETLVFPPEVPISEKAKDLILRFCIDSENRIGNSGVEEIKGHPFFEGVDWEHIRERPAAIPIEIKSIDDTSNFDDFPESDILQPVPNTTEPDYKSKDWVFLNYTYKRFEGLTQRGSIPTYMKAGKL

SMILES	target or system	assay	test system	setting	endpoint	value
O=c1nc(N2CCN(CC3CCCCC3)CC2)sc2c([N+](=O)[O-])cc(C(F)(F)F)cc12	–	–	CD-1 mouse, lung	oral, 100 mg/kg, 4.98 min	concentration	129 ng/mL
COc1cccc(OC)c1-c1cc(C(=O)NC2(C(=O)O)C3CC4CC(C3)CC2C4)nn1-c1ccc(C(=O)N(C)CCCN(C)CCCN(C)C(=O)CN2CCN(CC(=O)[O-])CCN(CC(=O)[O-])CCN(CC(=O)[O-])CC2)cc1C(C)C.[177Lu+3] (centres unmarked)	HT-29 tumour model	–	host not given, pancreas	4 h, tumour-bearing	tracer uptake	1.2 %ID/g
COc1cc(OC)c2c(=O)cc(-c3ccccc3Br)oc2c1-c1c(OC)cc(OC)c2c(=O)cc(-c3ccccc3Br)oc12	HS27	cell growth or viability, MTT	–	24 h	CC50	> 200 µM
CC1=C(Cn2cc(COC3COC3)nn2)C(=O)c2ccccc2C1=O	L6	cell growth or viability	–	–	CC50	7.1 µM
CCCCC(=O)Nc1ccc(-c2ccc3ncn(CCC)c(=O)c3c2)cn1	DAPK2 (Homo sapiens, UniProt Q9UIK4)	binding, competition with immobilised ligand	–	0.5 µM	remaining binding	100%
Nc1cc(F)c(-c2c(Cl)nc(-c3cccs3)nc2NCC2CCC2)c(F)c1	HEK293	cell growth or viability, resazurin	–	48 h	CC50	33.9 µM
CC1=C(Cn2cc(C(C)(C)O)nn2)C(=O)c2ccccc2C1=O	L6	cell growth or viability	–	–	CC50	7.27 µM
COc1cc(/C=C2\CCC/C(=C\c3ccc(O)c(OC)c3)C2=O)ccc1O	WRL68	cell growth or viability, MTT	–	48 h	CC50	6.71 µM
COc1cc(-c2cncc3c2CN(C)Cc2cc(N4CCNCC4)ccc2-3)cc(OC)c1OC	STK38L (Homo sapiens, UniProt Q9Y2H1)	enzyme activity, inhibitor	–	1 µM	remaining activity	101%
COC(=O)c1c(C)ncn1CC(c1cn(C)c2ccccc12)c1cn(C)c2ccccc12	DH82	cell growth or viability, MTS	–	24 h	CC50	> 20 µM
COc1cc(C)c(-c2c(C)cc(OC)c3c(=O)cc(-c4ccccc4)oc23)c2oc(-c3ccccc3)cc(=O)c12	HS27	cell growth or viability, MTT	–	24 h	CC50	> 200 µM
C=CC(=O)N1CCC(COCC(=O)N2CCN(c3nc(-c4cnc(N)nc4C(F)F)nc(N4CCOC[C@@H]4C)n3)CC2)CC1	MAP4K5	binding, competition with immobilised ligand	–	1 µM	remaining binding	96%
O=C1C=C2NCCc3c[nH]c(c32)C1=O	HeLa	cell growth or viability, MTT	–	72 h	CC50	50 µM
Nc1nc(O)c2ncn(COC(CO)CO)c2n1	MRC5	cell growth or viability, CCK-8	–	–	CC50	> 100 µM
O=C1CC[C@H](N2Cc3cc(N4CCN(CC5CCN(c6ccc([C@@H]7c8ccc(O)cc8CC[C@@H]7c7ccccc7)cc6)CC5)CC4)ccc3C2=O)C(=O)N1	–	–	female Sprague-Dawley rat, plasma	intravenous, 5 mg/kg, fed	half-life	322 min
O=C1C(NCCc2c[nH]c3ccccc23)=CC2=NCCc3c[nH]c1c32	HeLa	cell growth or viability, MTT	–	72 h	CC50	1.25 µM
Fc1cc(F)c(-c2c(Cl)nc(-c3cccs3)nc2N2CCCCCC2)c(F)c1	HEK293	cell growth or viability, resazurin	–	48 h	CC50	24 µM
CC1(C)CN(C(=O)Cn2c(=O)c(C(=O)NCc3ccc(Cl)cc3)cc3nccnc32)C1	MRC5	cell growth or viability, CCK-8	–	–	CC50	> 40 µM
COc1cc(C)c(-c2c(C)cc(OC)c3c(=O)cc(-c4cccc(Br)c4)oc23)c2oc(-c3cccc(Br)c3)cc(=O)c12	HS27	cell growth or viability, MTT	–	24 h	CC50	> 200 µM
NC1=CC2=NCCc3c[nH]c(c32)C1=O	HeLa	cell growth or viability, MTT	–	72 h	CC50	0.1 µM
Fc1cc(F)c(-c2c(Cl)nc(-c3cccs3)nc2N2CCCCC2)c(F)c1	HEK293	cell growth or viability, resazurin	–	48 h	CC50	> 50 µM
Nc1nc2c(ncn2COCCO)c(=O)[nH]1	ARPE-19	cell growth or viability, neutral red	–	–	CC50	> 100 µM
[N-]=[N+]=N[C@]1(CO)O[C@@H](n2ccc(N)nc2=O)[C@@H](F)[C@@H]1O	Huh7.5	cell growth or viability, ATP luminescence	–	72 h	CC50	> 50 µM
CNc1ncc2c(/C=C/C(=O)N3CCC(OC)CC3)nn(Cc3cccc(C(F)(F)F)c3)c2n1	MAP4K5	enzyme activity, inhibitor, radiometric	–	1 µM	remaining activity	117%
COc1cc(/C=C/C(=O)C(=Cc2ccccc2)C(=O)/C=C/c2ccc(O)c(OC)c2)ccc1O	WRL68	cell growth or viability, MTT	–	48 h	CC50	0.1 µM
N#Cc1cc(F)c(-c2c(Cl)nc(-c3cccs3)nc2NCC2CCC2)c(F)c1	HEK293	cell growth or viability, resazurin	–	48 h	CC50	> 50 µM
COc1ccc(-c2cc(=O)c3c(OC)cc(C)cc3o2)cc1	HS27	cell growth or viability, MTT	–	24 h	CC50	> 200 µM

SMILES	target or system	assay	test system	setting	endpoint	value
COc1cc(/C=C/C(=O)/C=C/c2ccc(O)c(OC)c2)ccc1O	WRL68	cell growth or viability, MTT	–	48 h	CC50	3.93 µM
COc1cnc2c(cc(C(=O)NCc3ccc(Cl)cc3)c(=O)n2CC(=O)N2CC(C)(F)C2)n1	MRC5	cell growth or viability, CCK-8	–	–	CC50	> 40 µM
C1=C/COCc2cc(ccc2OCCN2CCCC2)Nc2nccc(n2)-c2cccc(c2)COC/1	STK24 (Homo sapiens, UniProt Q9Y6E0)	cell-free assay	–	0.1 µM	remaining signal	99%
CC1(CNc2nc(-c3cccs3)nc(Cl)c2-c2c(F)cc(F)cc2F)COC1	HEK293	cell growth or viability, resazurin	–	48 h	CC50	5.55 µM
Cc1cc([C@@H](C)Nc2ccccc2C(=O)O)c2nc(N3CCC(F)(F)CC3)c(C#N)c(=O)n2c1	PIM2 (Homo sapiens, UniProt Q9P1W9)	binding, competition with immobilised ligand	–	1 µM	remaining binding	91%
CC(C)C(=O)Nc1nc(-c2cccs2)nc(Cl)c1-c1c(F)cc(F)cc1F	HEK293	cell growth or viability, resazurin	–	48 h	CC50	> 50 µM
CN1CCN(c2cnc3c(cc(C(=O)NCc4ccc(Cl)cc4)c(=O)n3CC(=O)N3CC(C)(F)C3)n2)C1=O	MRC5	cell growth or viability, CCK-8	–	–	CC50	> 40 µM
COc1cccc(-c2n[nH]c(SCc3ccccn3)n2)c1OC	–	–	male Sprague-Dawley rat, plasma	oral, 10 mg/kg, 24 h, single dose	concentration	3.6 ng/mL
COc1cc(/C=C/c2cc(/C=C/c3ccc(O)c(OC)c3)n(-c3cccc([N+](=O)[O-])c3)n2)ccc1O	WRL68	cell growth or viability, MTT	–	48 h	CC50	> 99 µM
COc1cccc(OC)c1-c1cc(C(=O)NC2(C(=O)O)C3CC4CC(C3)CC2C4)nn1-c1ccc(C(=O)N(C)CCCN(C)CCCN(C)C(=O)CN2CCN(CC(=O)[O-])CCN(CC(=O)[O-])CCN(CC(=O)[O-])CC2)cc1C(C)C.[177Lu+3] (centres unmarked)	HT-29 tumour model	–	host not given, pancreas	intravenous, 4 h, tumour-bearing	tracer uptake	0.9 %ID/g
Nc1ccn([C@@H]2O[C@H](CO)[C@@H](O)C2(F)F)c(=O)n1	MDA-MB-231	cell growth or viability, MTT	–	0.039063 µg/mL, 48 h	viability	93%
COc1cc(C)cc2oc(-c3cccc(Br)c3)cc(=O)c12	HS27	cell growth or viability, MTT	–	24 h	CC50	104 µM
CN(C)C(=O)CN1CCN(c2cnc3c(cc(C(=O)NCc4ccc(Cl)cc4)c(=O)n3CC(=O)N3CC(C)(F)C3)n2)C1=O	MRC5	cell growth or viability, CCK-8	–	–	CC50	> 40 µM
Cc1cn(CC(c2cn(C)c3ccccc23)c2cn(C)c3ccccc23)nn1	DH82	cell growth or viability, MTS	–	24 h	CC50	> 20 µM
CC1(F)CN(C(=O)Cn2c(=O)c(C(=O)NCc3ccc(Cl)cc3)cc3nc(N4CCCC4=O)cnc32)C1	MRC5	cell growth or viability, CCK-8	–	–	CC50	16 µM
CC1=C(Cn2cc([Si](C)(C)C)nn2)C(=O)c2ccccc2C1=O	L6	cell growth or viability	–	–	CC50	18.2 µM
COc1cc(OC)c2c(=O)cc(-c3ccc(C(F)(F)F)cc3)oc2c1-c1c(OC)cc(OC)c2c(=O)cc(-c3ccc(C(F)(F)F)cc3)oc12	HS27	cell growth or viability, MTT	–	24 h	CC50	> 200 µM
CC1(F)CN(C(=O)Cn2c(=O)c(C(=O)NCc3ccc(Cl)cc3)cc3nc(N4CCOC4=O)cnc32)C1	MRC5	cell growth or viability, CCK-8	–	–	CC50	33 µM
CC1=C(Cn2cc(CBr)nn2)C(=O)c2ccccc2C1=O	L6	cell growth or viability	–	–	CC50	18.2 µM
CC(C)(C)CNc1nc(-c2cccs2)nc(Cl)c1-c1c(F)cc(F)cc1F	HEK293	cell growth or viability, resazurin	–	48 h	CC50	40.1 µM
CNCCN1CCN(c2cnc3c(cc(C(=O)NCc4ccc(Cl)cc4)c(=O)n3CC(=O)N3CC(C)(F)C3)n2)C1=O	MRC5	cell growth or viability, CCK-8	–	–	CC50	23 µM
Cc1ccc(Cn2cc(C(=O)NN)c(=O)c3cc(Oc4ccccc4)ccc32)cc1	MRC5	cell growth or viability	–	–	CC50	> 20 µM
Fc1cc(F)c(-c2c(Cl)nc(-c3cccs3)nc2NCc2cccnc2)c(F)c1	HEK293	cell growth or viability, resazurin	–	48 h	CC50	16.9 µM
COc1ccc(-c2cc(=O)c3c(OC)cc(C)c(-c4c(C)cc(OC)c5c(=O)cc(-c6ccc(OC)cc6)oc45)c3o2)cc1	HS27	cell growth or viability, MTT	–	24 h	CC50	> 200 µM
CCC[C@H](CC)Oc1ccc(C(=O)OC)cc1NC(=O)c1nnn(-c2cc(OC)ccc2OC)c1C	SNU-C4	cell growth or viability, ATP luminescence	–	24 h	CC50	> 30 µM
NCCOCC(=O)NC1CCN(S(=O)(=O)c2cc(C(=O)Nc3cc(F)c(F)c(F)c3)ccc2F)CC1	HepG2.2.15	cell growth or viability, CCK-8	–	6 days	CC50	> 100 µM

For quick reference, copied from above:
SMILES	target or system	assay	test system	setting	endpoint	value
CNCCN1CCN(c2cnc3c(cc(C(=O)NCc4ccc(Cl)cc4)c(=O)n3CC(=O)N3CC(C)(F)C3)n2)C1=O	MRC5	cell growth or viability, CCK-8	–	–	CC50	23 µM
Cc1ccc(Cn2cc(C(=O)NN)c(=O)c3cc(Oc4ccccc4)ccc32)cc1	MRC5	cell growth or viability	–	–	CC50	> 20 µM
Fc1cc(F)c(-c2c(Cl)nc(-c3cccs3)nc2NCc2cccnc2)c(F)c1	HEK293	cell growth or viability, resazurin	–	48 h	CC50	16.9 µM
COc1ccc(-c2cc(=O)c3c(OC)cc(C)c(-c4c(C)cc(OC)c5c(=O)cc(-c6ccc(OC)cc6)oc45)c3o2)cc1	HS27	cell growth or viability, MTT	–	24 h	CC50	> 200 µM
CCC[C@H](CC)Oc1ccc(C(=O)OC)cc1NC(=O)c1nnn(-c2cc(OC)ccc2OC)c1C	SNU-C4	cell growth or viability, ATP luminescence	–	24 h	CC50	> 30 µM
